Published values collected from several papers.
Numbered parts are unrelated; each lists some results of a single study. Positions count from the first letter of the parent shown.

Series 1 — target: CCNA1, cyclin fold, Cln2 fusion (human); technique: yeast growth competition, sequencing; medium: yeast; notes: weak parent motif; relative to: not given; direction: higher = stronger binding
Parent: CDC6 docking peptide (human); TLKGRRLVFDNQL
Substitution | normalised enrichment score
L7Y | 0.389
R6H | -0.0024
T1C | 0.264
L2A | 0.0302
Q12R | 0.363

Series 2 — technique: DHFR PCA, deep sequencing; medium: yeast; together with: (+)-ABA 0.032 µM; relative to: wild-type fitted maximum; direction: higher = stronger binding
Target: ABI1, truncated, D143A, DHFR fusion (Arabidopsis thaliana)
Notes: methotrexate growth selection, single substitutions
Parent: PYL1, truncated, DHFR fusion (Arabidopsis thaliana); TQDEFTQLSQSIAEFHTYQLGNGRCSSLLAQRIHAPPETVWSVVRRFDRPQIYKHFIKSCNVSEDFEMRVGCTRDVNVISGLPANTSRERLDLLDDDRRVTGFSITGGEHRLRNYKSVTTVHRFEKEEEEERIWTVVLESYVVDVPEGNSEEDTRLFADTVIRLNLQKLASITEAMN
Substitution | relative binding score
P146G | 7.33%
H34D | 39.3%
L29H | 24.3%
C60Y | 6.13%
N177E | 23.9%
L169F | -6.07%
G71R | 3.81%

Series 3 — technique: universal PBM; molecule type: double-stranded DNA, one strand shown; medium: in vitro; tested at: not given; direction: higher = stronger binding
Target: Sal-like protein 4, full length isoform B (SALL4, Homo sapiens, UniProt Q9UJQ4-2, residues 1-616)
Notes: 8-mer, flanks averaged, mean of replicates
Target sequence (chain): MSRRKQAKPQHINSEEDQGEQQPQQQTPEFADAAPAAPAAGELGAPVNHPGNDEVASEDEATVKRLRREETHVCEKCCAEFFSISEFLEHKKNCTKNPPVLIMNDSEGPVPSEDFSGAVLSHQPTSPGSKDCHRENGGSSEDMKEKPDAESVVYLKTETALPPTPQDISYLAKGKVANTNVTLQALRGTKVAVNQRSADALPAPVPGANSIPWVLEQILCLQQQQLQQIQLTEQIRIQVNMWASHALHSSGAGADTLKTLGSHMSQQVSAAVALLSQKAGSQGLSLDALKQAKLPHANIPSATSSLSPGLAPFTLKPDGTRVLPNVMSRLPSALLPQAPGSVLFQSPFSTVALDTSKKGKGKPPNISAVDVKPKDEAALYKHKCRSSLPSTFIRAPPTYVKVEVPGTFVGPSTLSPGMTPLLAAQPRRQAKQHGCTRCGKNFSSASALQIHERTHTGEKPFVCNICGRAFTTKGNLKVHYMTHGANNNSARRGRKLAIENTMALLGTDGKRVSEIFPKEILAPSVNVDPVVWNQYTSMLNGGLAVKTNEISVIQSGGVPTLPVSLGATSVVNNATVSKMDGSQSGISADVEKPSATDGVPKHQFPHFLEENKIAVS
Oligonucleotide | E-score
AGAAGGCT | -0.191
ACACGATG | 0.0432
CGGCCGCC | -0.31
ACCCGAAG | -0.127

Mixed results
Molecule | target | test | test system | setting | how to read | quantity | value
PhoQ, residues 284 288 289 292 302 303 SLCLSL | PhoP, residues 12 14 15 18 19 NNFVT (Escherichia coli, UniProt P23836) | Sort-seq, refers to: YFP reporter | E. coli | PhoQ-PhoP variant library, together with: 10 µM Mg2+ | relative to: high Mg2+ state, higher = stronger signaling | fold induction | 19.1

A few entries again (series 1):
Substitution | normalised enrichment score
R6H | -0.0024
T1C | 0.264
L2A | 0.0302
